Experimental data collected from several papers.
Parts stem from different laboratories: compare values within a part only. Positions count from the first letter of the parent shown.

Sample 1
Target: Histone acetyltransferase KAT6A, winged helix 2, GST fusion (KAT6A, Homo sapiens, UniProt Q92794, residues 85-181)
Technique: protein binding microarray
Molecule type: double-stranded DNA, one strand shown
Matrix: in vitro
Concentration: not given
Setting: 8-mer, flanks averaged, mean of 2 arrays, mostly near background
Reference: not given
Reading: higher = stronger binding
Target sequence (chain): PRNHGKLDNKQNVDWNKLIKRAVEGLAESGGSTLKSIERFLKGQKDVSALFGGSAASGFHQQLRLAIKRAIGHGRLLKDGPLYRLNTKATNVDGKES
| Sequence | E-score |
| --- | --- |
| GTCTCCGA | 0.157 |
| ACCCCGAG | -0.0497 |
| ACAGCAGA | 0.109 |
| CACGAAAG | -0.00743 |
| CGATCAAG | 0.0175 |
| ATAATGAT | 0.0889 |
| ACCGAGAT | 0.0501 |
| AGACTCAG | -0.0787 |
| CACAACGA | 0.193 |

Sample 2
Target: Interferon regulatory factor 5, full length, phosphomimetic (IRF5, Homo sapiens, UniProt Q13568-2, residues 1-514, K96S/S451D/S453D/S456D/S462D)
Technique: protein-binding microarray
Molecule type: double-stranded DNA, one strand shown
Matrix: in vitro
Concentration: 250 nM
Setting: 60-bp whole probe
Together with: salmon DNA 0.4 mg/ml
Reference: random background probes
Reading: higher = stronger binding
Shared flanks, not repeated: GCCTAGCAC … GTCTTGATTCGCTTGACGCTGCTG
| Sequence | log fluorescence |
| --- | --- |
| GACGGACTGCTACTGCTTACGTGCTAG | -0.301 z-score |
| TTAGGTATCGGTATCTGTTAGTGCTAG | 7.66 z-score |
| GACGATCGCAGTCTCGAGACGTGCTAG | -0.219 z-score |
| CACAGTTTGTAAATCTTTTTGTGCTAG | 0.602 z-score |
| GCCGGTATCGGGACTGGGGACGTGCTA | 1.45 z-score |
| GACGGTCTCCTTTTCCTGATGTGCTAG | 0.277 z-score |
| GACGATTTCAGTATCGAGTCGTGCTAG | 4.61 z-score |

Sample 3
Target: CCND2, cyclin fold, Cln2 fusion (human)
Technique: yeast growth competition, sequencing
Matrix: yeast
Setting: weak parent motif
Reference: not given
Reading: higher = stronger binding
Parent: MASTL docking peptide (human); PMIAKNLMCELDE
| Substitution | normalised enrichment score |
| --- | --- |
| C9V | 0.265 |
| K5W | 0.215 |
| L7F | -0.163 |
| M8V | 0.234 |
| I3H | -0.0213 |
| I3M | -0.0777 |

Other studies, line by line
| Substance | target | test | test system | setting | how to read | measurement | result |
| --- | --- | --- | --- | --- | --- | --- | --- |
| PhoQ, residues 284 288 289 292 302 303 TSTLRA | PhoP, residues 12 14 15 18 19 SMASL (Escherichia coli, UniProt P23836) | Sort-seq, refers to: YFP reporter | E. coli | PhoQ-PhoP variant library, together with: 10 µM Mg2+ | reference: high Mg2+ state, higher = stronger signaling | fold induction | 3.37 |
